Measured values gathered from unrelated publications.
Protocols differ between the studies behind these lines. ± marks the error that the study gave.
MALT1: Mucosa-associated lymphoid tissue lymphoma translocation protein 1 (MALT1, Homo sapiens, UniProt Q9UDY8)

Sequences of proteins named here, by UniProt entry; tags and fusion partners are left off. Residues count along the entry.
UniProt Q9UDY8, 329-566 limits assumed: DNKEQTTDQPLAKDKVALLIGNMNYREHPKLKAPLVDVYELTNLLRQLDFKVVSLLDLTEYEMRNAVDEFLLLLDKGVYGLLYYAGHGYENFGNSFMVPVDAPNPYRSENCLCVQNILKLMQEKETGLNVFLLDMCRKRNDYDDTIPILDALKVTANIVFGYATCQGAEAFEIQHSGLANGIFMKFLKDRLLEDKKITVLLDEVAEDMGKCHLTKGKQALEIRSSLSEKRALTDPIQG
UniProt O15379, whole entry: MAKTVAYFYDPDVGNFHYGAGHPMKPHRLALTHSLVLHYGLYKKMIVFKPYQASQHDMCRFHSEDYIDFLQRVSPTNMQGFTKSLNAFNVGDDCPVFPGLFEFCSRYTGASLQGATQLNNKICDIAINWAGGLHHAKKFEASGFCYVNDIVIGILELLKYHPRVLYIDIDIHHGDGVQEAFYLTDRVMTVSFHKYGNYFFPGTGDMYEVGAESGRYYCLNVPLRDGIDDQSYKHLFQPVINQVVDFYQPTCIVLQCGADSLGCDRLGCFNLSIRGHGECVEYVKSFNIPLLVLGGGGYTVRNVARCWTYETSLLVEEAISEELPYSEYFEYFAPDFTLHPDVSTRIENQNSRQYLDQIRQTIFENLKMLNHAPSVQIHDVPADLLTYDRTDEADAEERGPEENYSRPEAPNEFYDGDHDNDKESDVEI
UniProt Q9Y618, 389-480 partner limits assumed: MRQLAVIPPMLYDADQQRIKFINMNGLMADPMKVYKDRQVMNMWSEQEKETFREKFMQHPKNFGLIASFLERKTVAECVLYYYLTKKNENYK
UniProt P51452, 28-179 limits assumed: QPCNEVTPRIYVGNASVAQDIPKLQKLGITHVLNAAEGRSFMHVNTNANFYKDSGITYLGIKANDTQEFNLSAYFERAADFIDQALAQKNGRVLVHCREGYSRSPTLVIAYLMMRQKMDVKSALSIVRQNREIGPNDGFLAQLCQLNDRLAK
UniProt Q9UBN7, whole entry: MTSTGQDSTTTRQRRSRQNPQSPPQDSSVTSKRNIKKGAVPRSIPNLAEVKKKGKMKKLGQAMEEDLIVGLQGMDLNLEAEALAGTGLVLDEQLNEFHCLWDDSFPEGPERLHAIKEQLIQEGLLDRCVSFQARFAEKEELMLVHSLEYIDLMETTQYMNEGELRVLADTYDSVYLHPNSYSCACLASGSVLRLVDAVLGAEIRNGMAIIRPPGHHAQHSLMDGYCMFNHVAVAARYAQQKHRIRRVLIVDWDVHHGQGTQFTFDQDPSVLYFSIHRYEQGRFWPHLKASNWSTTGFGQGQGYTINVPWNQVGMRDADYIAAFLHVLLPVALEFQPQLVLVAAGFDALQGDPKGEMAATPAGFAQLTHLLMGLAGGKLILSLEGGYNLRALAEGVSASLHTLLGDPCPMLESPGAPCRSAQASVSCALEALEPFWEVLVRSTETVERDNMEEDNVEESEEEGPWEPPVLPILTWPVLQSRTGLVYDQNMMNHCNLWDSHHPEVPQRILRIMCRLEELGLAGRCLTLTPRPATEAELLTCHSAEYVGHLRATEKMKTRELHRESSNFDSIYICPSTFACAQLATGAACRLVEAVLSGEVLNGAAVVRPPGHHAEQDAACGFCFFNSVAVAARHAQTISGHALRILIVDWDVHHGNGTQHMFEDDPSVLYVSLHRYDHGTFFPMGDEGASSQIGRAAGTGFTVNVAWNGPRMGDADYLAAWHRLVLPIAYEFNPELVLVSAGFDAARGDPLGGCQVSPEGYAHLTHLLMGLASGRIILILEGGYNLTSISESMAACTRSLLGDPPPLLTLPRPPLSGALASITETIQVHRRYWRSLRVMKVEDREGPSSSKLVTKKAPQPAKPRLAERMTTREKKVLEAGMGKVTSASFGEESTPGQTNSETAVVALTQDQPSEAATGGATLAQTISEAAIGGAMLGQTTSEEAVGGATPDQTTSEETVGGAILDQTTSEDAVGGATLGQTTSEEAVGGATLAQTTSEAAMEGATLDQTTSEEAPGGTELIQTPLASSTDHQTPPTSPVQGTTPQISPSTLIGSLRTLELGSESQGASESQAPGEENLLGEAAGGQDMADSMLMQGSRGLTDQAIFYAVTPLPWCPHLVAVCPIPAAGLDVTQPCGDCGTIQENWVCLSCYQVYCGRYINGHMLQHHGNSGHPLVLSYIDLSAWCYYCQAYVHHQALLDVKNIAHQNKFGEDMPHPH
UniProt O60502, whole entry: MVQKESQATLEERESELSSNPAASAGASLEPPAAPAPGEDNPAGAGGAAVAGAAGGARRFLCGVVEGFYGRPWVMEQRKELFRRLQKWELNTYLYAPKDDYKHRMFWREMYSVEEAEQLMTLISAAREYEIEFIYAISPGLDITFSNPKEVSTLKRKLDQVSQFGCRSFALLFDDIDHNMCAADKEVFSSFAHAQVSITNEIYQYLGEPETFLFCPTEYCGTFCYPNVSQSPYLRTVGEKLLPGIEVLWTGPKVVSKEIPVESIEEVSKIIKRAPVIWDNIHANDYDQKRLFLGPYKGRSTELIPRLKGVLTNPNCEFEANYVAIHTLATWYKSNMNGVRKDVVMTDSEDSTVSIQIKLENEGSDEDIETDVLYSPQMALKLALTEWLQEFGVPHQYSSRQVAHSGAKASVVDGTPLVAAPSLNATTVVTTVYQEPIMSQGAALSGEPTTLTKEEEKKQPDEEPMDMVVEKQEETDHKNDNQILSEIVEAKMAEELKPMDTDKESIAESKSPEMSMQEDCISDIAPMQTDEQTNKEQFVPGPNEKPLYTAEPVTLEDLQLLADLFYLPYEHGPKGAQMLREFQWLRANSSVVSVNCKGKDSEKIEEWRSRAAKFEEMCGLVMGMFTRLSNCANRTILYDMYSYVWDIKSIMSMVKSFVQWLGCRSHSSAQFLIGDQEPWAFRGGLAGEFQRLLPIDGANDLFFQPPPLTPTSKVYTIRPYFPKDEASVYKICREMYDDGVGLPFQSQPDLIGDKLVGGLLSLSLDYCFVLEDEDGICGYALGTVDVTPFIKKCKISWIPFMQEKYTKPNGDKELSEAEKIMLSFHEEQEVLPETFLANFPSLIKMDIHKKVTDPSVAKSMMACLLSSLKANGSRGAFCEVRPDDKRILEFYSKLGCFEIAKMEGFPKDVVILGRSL
UniProt Q9BY41, whole entry: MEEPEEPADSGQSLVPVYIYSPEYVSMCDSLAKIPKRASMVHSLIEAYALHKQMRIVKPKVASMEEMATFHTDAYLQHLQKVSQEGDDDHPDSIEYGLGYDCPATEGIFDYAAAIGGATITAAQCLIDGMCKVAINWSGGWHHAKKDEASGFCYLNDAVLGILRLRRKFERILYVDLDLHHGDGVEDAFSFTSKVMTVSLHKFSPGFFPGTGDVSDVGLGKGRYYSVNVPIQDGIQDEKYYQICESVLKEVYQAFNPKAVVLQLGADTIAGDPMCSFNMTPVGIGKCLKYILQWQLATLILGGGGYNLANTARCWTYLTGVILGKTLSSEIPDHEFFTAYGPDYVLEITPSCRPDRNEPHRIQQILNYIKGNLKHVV
UniProt Q99797, 36-713 limits assumed: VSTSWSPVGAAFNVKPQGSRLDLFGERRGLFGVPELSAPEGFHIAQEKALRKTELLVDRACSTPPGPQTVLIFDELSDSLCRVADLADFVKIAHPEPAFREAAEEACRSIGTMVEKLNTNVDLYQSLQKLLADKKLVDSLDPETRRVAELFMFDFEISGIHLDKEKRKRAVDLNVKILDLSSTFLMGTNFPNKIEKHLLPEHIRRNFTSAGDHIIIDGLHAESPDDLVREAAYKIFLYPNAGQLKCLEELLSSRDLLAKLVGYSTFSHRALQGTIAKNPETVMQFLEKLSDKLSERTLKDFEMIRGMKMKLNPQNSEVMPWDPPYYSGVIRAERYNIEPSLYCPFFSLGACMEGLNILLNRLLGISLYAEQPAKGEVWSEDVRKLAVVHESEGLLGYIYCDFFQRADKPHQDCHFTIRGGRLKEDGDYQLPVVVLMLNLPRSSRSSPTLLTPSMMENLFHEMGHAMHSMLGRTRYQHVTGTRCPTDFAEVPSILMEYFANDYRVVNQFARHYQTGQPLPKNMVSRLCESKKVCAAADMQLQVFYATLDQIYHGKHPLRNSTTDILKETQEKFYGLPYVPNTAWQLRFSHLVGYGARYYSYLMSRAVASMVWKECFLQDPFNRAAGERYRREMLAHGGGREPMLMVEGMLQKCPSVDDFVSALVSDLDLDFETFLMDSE
UniProt Q96EB6, whole entry: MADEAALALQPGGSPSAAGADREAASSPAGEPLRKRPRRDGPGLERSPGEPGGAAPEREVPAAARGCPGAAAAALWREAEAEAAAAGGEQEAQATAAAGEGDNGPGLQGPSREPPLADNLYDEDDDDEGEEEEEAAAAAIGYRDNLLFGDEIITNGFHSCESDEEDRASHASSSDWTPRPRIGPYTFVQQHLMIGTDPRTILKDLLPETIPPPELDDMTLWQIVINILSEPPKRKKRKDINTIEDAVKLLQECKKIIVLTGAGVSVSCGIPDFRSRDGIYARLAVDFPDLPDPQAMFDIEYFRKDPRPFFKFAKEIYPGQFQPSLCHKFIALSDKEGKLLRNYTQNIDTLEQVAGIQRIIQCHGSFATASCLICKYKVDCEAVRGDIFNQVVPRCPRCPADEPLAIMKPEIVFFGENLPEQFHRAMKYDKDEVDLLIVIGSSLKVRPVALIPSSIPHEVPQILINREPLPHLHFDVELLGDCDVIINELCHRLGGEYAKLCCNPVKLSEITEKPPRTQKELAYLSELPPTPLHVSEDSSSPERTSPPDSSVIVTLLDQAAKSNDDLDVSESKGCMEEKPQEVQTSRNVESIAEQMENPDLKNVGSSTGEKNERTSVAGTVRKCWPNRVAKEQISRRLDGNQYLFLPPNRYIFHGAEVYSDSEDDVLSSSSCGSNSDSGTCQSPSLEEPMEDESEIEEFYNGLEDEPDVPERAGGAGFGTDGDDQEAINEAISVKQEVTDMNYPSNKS

CCC(=O)NCCCC[C@H](NC(=O)CNC(=O)[C@H](CC(C)C)NC(C)=O)C(=O)Nc1ccc2c(C)cc(=O)oc2c1 — Km (Histone deacetylase 3/Nuclear receptor corepressor 2 (HDAC3/NCoR2) (Homo sapiens, UniProt O15379+Q9Y618); substrate, fluorogenic trypsin-coupled; pH 7.4, 25 °C): < 10 µM
Cc1cc(=O)oc2cc(NC(=O)[C@H](Cc3ccc(O)cc3)NC(=O)[C@@H](NC(=O)[C@H](CC(C)C)NC(=O)[C@H](CC(C)C)NC(=O)CCC(=O)O)C(C)C)ccc12 — Km (Proteasome Macropain subunit MB1 (PSMB5, Homo sapiens, UniProt P28074); chymotrypsin-like activity, substrate; pH 7.8, 37 °C): 5.9 ± 0.8 µM
CC(=O)N[C@@H](Cc1c[nH]cn1)C(=O)N[C@H](C(=O)NCC(=O)N[C@@H](Cc1ccccc1)C(=O)N[C@@H](CC(C)C)C(=O)N[C@H](C(=O)N[C@@H](CCC(=O)O)C(=O)N[C@@H](Cc1cc(=O)oc2cc(OP(=O)(O)O)ccc12)C(=O)N[C@H](C(=O)N[C@@H](C)C(=O)N[C@H](C(=O)N[C@@H](CCCNC(=N)N)C(=O)N[C@@H](Cc1c[nH]c2ccccc12)C(N)=O)[C@@H](C)O)C(C)C)[C@@H](C)OP(=O)(O)O)[C@@H](C)O — Km (Dual specificity protein phosphatase 3 (DUSP3, Homo sapiens, UniProt P51452); peptide hydrolysis, substrate; pH 6.0, 37 °C, 250 nM enzyme, added: ERK activation-loop peptide): 48.9 µM
CC(=O)NCCCC[C@H](NC(C)=O)C(=O)N[C@@H](Cc1c[nH]c2ccccc12)C(N)=O — Km (Protein deacetylase HDAC6 (HDAC6, Homo sapiens, UniProt Q9UBN7); substrate; 25 °C): 70 ± 30 µM
COc1cc([C@@H]2c3cc4c(cc3[C@](O)(C3(O)CCOCC3)[C@H]3COC(=O)[C@H]23)OCO4)cc(OC)c1OC — EC50 (Leishmania infantum; promastigote, iRFP): > 100 µM
CC(=O)N[C@H]1[C@H](OC[C@H](NC(=O)[C@H](Cc2ccc(O)cc2)NC(=O)[C@@H]2CCCN2C(C)=O)C(=O)N[C@@H](CO)C(=O)N[C@@H](C)C(N)=O)O[C@H](CO)[C@@H](O)[C@@H]1O — Km (Protein O-GlcNAcase (OGA, Homo sapiens, UniProt O60502); substrate; pH 7.5, 37 °C, added: 4MU-GlcNAc 200 µM competition): 6300 ± 500 µM
CC(=O)NCCCC[C@H](NC(=O)CNC(=O)[C@H](CCCNC(=N)N)NC(C)=O)C(N)=O — Km (Histone deacetylase 8 (HDAC8, Homo sapiens, UniProt Q9BY41); substrate; 25 °C): > 5000 µM
CSCC[C@H](NC(=O)[C@H](CC(C)C)NC(=O)[C@H](CC(N)=O)NC(=O)c1ccccc1N)C(=O)N[C@@H](CCCCN)C(=O)N[C@@H](CCCCN)C(=O)N[C@@H](CO)C(=O)N[C@H](C(=O)N[C@@H](CCCCNc1ccc([N+](=O)[O-])cc1[N+](=O)[O-])C(N)=O)[C@@H](C)O — Km (Mitochondrial intermediate peptidase (MIPEP, Homo sapiens, UniProt Q99797); substrate, FRET peptide hydrolysis): 1.3 µM
CC(=O)N[C@@H](CC(C)C)C(=O)N[C@@H](CCCNC(=N)N)C(=O)N[C@@H](CO)C(=O)N[C@@H](CCCNC(=N)N)C(=O)Nc1ccc2c(C(F)(F)F)cc(=O)oc2c1 — Km (MALT1; substrate, fluorogenic peptide hydrolysis; pH 7.5, catalytic domain, sodium citrate 0.9 M): 15.3 µM
COc1cc([C@@H]2c3cc4c(cc3C=C(C=O)[C@H]2C(=O)OCCCBr)OCO4)cc(OC)c1OC — EC50 (Leishmania infantum; promastigote, iRFP): 35.2 ± 7.5 µM
CC(=O)N[C@@H](CCC(N)=O)C(=O)N[C@H](C(=O)N[C@@H](C)C(=O)N[C@@H](CCCNC(=N)N)C(=O)N[C@@H](CCCCNC(=O)CCc1ccc(N=Nc2ccc(N(C)C)cc2)cc1)C(=O)N[C@@H](CO)C(=O)N[C@H](C(=O)NCC(=O)NCC(=O)NCCCNC(=S)Nc1ccc2c(c1)C(=O)OC21c2ccc(O)cc2Oc2cc(O)ccc21)[C@@H](C)O)[C@@H](C)O — Km (NAD-dependent protein deacetylase sirtuin-1 (SIRT1, Homo sapiens, UniProt Q96EB6); substrate, fluorescence kinetics; 37 °C, 7 nM SIRT1, added: 500 µM NAD+): 0.1 ± 0.014 µM
CC(=O)N[C@@H](CC(C)C)C(=O)N[C@@H](CCCNC(=N)N)C(=O)N[C@@H](CO)C(=O)N[C@@H](CCCNC(=N)N)C(=O)Nc1ccc2c(C)cc(=O)oc2c1 — Km (MALT1; substrate, fluorogenic peptide hydrolysis; pH 7.5, catalytic domain, sodium citrate 0.9 M): 19.5 µM

Excerpt of the above:
CSCC[C@H](NC(=O)[C@H](CC(C)C)NC(=O)[C@H](CC(N)=O)NC(=O)c1ccccc1N)C(=O)N[C@@H](CCCCN)C(=O)N[C@@H](CCCCN)C(=O)N[C@@H](CO)C(=O)N[C@H](C(=O)N[C@@H](CCCCNc1ccc([N+](=O)[O-])cc1[N+](=O)[O-])C(N)=O)[C@@H](C)O — Km (Mitochondrial intermediate peptidase (MIPEP, Homo sapiens, UniProt Q99797); substrate, FRET peptide hydrolysis): 1.3 µM
CC(=O)N[C@@H](CC(C)C)C(=O)N[C@@H](CCCNC(=N)N)C(=O)N[C@@H](CO)C(=O)N[C@@H](CCCNC(=N)N)C(=O)Nc1ccc2c(C(F)(F)F)cc(=O)oc2c1 — Km (MALT1; substrate, fluorogenic peptide hydrolysis; pH 7.5, catalytic domain, sodium citrate 0.9 M): 15.3 µM
